Assay results from different studies.
Each line is one published result; not all experiments were run side by side. “And” joins repeats or separate records; there may be more than shown. ± gives the spread as reported.
TDP1: Tyrosyl-DNA phosphodiesterase 1 (TDP1, Homo sapiens, UniProt Q9NUW8)
UniProt Q9NUW8, sequence (whole entry, looked up): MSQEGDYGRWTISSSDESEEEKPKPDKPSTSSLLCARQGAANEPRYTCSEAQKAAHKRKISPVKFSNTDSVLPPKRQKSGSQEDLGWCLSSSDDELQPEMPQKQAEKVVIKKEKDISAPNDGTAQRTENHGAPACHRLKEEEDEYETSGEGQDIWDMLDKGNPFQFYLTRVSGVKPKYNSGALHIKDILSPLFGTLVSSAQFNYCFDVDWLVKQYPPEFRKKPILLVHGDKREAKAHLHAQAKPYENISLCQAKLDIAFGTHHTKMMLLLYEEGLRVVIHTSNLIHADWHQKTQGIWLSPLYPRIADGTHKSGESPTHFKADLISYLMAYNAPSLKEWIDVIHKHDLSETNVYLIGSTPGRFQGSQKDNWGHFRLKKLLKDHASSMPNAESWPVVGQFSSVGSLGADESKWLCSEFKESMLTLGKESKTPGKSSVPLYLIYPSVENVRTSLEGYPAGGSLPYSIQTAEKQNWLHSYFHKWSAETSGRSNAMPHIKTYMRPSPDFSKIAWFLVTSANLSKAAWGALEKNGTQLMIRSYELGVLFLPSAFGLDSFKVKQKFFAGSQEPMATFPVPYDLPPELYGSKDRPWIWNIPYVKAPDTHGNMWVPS

SMILES	target or system	assay	system	setting	how to read	quantity	value
COc1cc(O)ccc1CCC(c1ccc(O)cc1)c1cc2c(c(C)c1O)OC(c1ccc(O)cc1)CC2 (mixture of isomers)			human blood	0.3 µM, added: A23187		15-HETE level	163 ± 51 pg/mL
O=[N][Fe]1([N]=O)[S](CCO)[Fe]([N]=O)([N]=O)[S]1CCO			aged C57BL/6JNarl mice on Western diet	po, 2.65 mg/kg daily, 16 weeks		body weight	40.5 ± 6.32 g
O=C(C=Cc1ccc(O)cc1)Nc1ccc(-c2ccc(NC(=O)C=Cc3ccc(O)cc3)cc2)cc1		carrageenan paw oedema	albino rat	oral, 50 mg/kg, 3 h		inhibition	19.4%
COc1cc2c(NC3CCN(C(C)C)CC3)cc(N3CCOCC3)nc2cc1OCCCN1CCCC1		TMT proteomics, refers to: YWHAB	5xFAD mice, hippocampus	dose not given	reference: untreated 5xFAD mice	log2 fold change	-0.0388
CCC(CC)n1c(Cc2ccco2)nc2cc(C(=O)N[C@@H](CC(=O)O)c3ccccc3)ccc21			mouse, HFpEF model (HFD plus L-NAME)	ip, 20 mg/kg/day, 2 wk		E/A and E/e' ratio	decreased
Nc1oc2ccc(F)cc2c(=O)c1C=NOCc1ccc2nc(-c3ccccc3)c(Nc3ccc(C(=O)O)cc3)n2c1 (mixture of isomers)	TDP1	enzyme activity, inhibitor		100 µM, unpurified compound		inhibition	2.6%
CC(CCC(=O)NCc1ccc(C(=O)NO)cc1)C1CCC2C3C(O)CC4CC(O)CCC4(C)C3CCC12C (stereo not drawn)		refers to: UDCA	PCK rat (Pkhd1 mutant), bile	oral gavage, dose not given, 5 months	reference: total bile acids	relative abundance	0.05%
COc1ccc(NC(=O)c2ccc3[nH]c(-c4ccc(N(C)C)cc4)nc3c2)cn1			CT26, BALB/c nude mice, subcutaneous graft	dose not given, day 9		tumour volume	1260 mm3 and 988 mm3 and 1640 mm3 and 1960 mm3
CCC(=O)N[C@@H](C)C(=O)OCC(=O)N[C@@H](C)C(=O)O			water	pH 2, 25 °C		side-chain scission rate constant	0.0005 h⁻¹
CC[C@H](C)[C@@H](C(=O)N[C@@H](CC(C)C)C(=O)N[C@@H](CO)C(=O)N[C@@H](CO)C(=O)N[C@H](C(=O)N[C@@H](CCC(=O)O)C(=O)N[C@H](C(=O)NCC(=O)N[C@@H](CO)C(=O)N[C@@H](CC(N)=O)C(=O)N[C@H](C(=O)N1C[C@H](O)C[C@H]1C(N)=O)[C@@H](C)O)C(C)C)[C@@H](C)O)N(C)C(=O)[C@H](C)NC(=O)CN(C)C(=O)[C@H](Cc1ccccc1)NC(=O)[C@H](CO)NC(=O)[C@H](CO)NC(=O)[C@H](CCCNC(=N)N)NC(=O)[C@H](CCC(N)=O)NC(=O)[C@H](CC(C)C)NC(=O)[C@H](Cc1ccccc1)NC(=O)[C@H](CC(=O)O)NC(=O)[C@H](C)NC(=O)[C@H](CC(C)C)NC(=O)[C@H](CCCNC(=N)N)NC(=O)[C@H](CCC(N)=O)NC(=O)[C@@H](NC(=O)[C@H](C)NC(=O)[C@@H]1CSSC[C@H](NC(=O)[C@H](CCCNC(=N)N)NC(=O)CC[C@H](NC(=O)CCCCCCCCCCCCCCCCCCC(=O)O)C(=O)O)C(=O)N[C@@H](CC(N)=O)C(=O)N[C@@H]([C@@H](C)O)C(=O)N[C@@H](C)C(=O)N[C@@H]([C@@H](C)O)C(=O)N1)[C@@H](C)O			male Sprague-Dawley rats	subcutaneous, 30 nmol/kg single dose, 24 h	reference: vehicle	food intake	75.7 ± 1.7%
CC(=O)[O-].O.O.O.O.[Co+2].[O-]c1ccc(Br)cc1C=NCCN1CCOCC1		DPPH radical scavenging		80 µM		inhibition	31.9%
COc1ccccc1C1CC(Nc2ccc(-c3ccc(NC4=NN(C(C)=O)C(c5ccccc5OC)C4)cc3)cc2)=NN1C(C)=O (stereo not drawn)		carrageenan paw oedema	albino rat	oral, 50 mg/kg, 3 h	reference: vehicle	inhibition	42.2%
CC(C)=CCc1cc(C(=O)/C=C/c2ccc(O)cc2)c(O)cc1O		oxidised metabolite formation, substrate	human liver microsomes	added: NADPH		Vmax	117 ± 9.84 pmol/min/mg
COc1ccc(C(=O)CCc2cc(C(CCc3ccc(O)cc3OC)c3ccc(O)cc3)c(O)cc2OC)cc1 (racemic)			human blood	30 µM, added: A23187		12-HETE level	10100 ± 4370 pg/mL
CC(C)(C)NCC(SS(=O)(=O)O)c1ccccc1 (stereo not drawn)			mouse infected with Schistosoma mansoni	400 mg/kg, day 21 post-infection dosing once, perfusion day 52 post-infection		spleen weight	0.21 g and 0.16 g
CCOC(=O)C12CC(N)(C1)C2			CD-1 mouse female	subcutaneous, 6.5 mg/mouse, 0 min	higher = stronger analgesia	tail flick latency	2.5 a.u. and 3.07 a.u. and 2.39 a.u. and 2.6 a.u. and 2.62 a.u.
Cc1cccc(C)c1CNc1cc(C(=O)N2CCC2)cn2c(C)c(C)nc12		indomethacin-induced gastric lesions	rat	oral, 2 mg/kg	reference: vehicle	inhibition	91%
CC[C@H](C)[C@@H](C(=O)N[C@@H](CC(C)C)C(=O)N[C@@H](CO)C(=O)N[C@@H](CO)C(=O)N[C@H](C(=O)N[C@@H](CCC(=O)O)C(=O)N[C@H](C(=O)NCC(=O)N[C@@H](CO)C(=O)N[C@@H](CC(N)=O)C(=O)N[C@H](C(=O)N1C[C@H](O)C[C@H]1C(N)=O)[C@@H](C)O)C(C)C)[C@@H](C)O)N(C)C(=O)[C@H](C)NC(=O)CN(C)C(=O)[C@H](Cc1ccccc1)NC(=O)[C@H](CO)NC(=O)[C@H](CO)NC(=O)[C@H](CCCNC(=N)N)NC(=O)[C@H](CCC(N)=O)NC(=O)[C@H](CC(C)C)NC(=O)[C@H](Cc1ccccc1)NC(=O)[C@H](CCCC(=O)O)NC(=O)[C@H](C)NC(=O)[C@H](CC(C)C)NC(=O)[C@H](CCCNC(=N)N)NC(=O)[C@H](CCC(=O)O)NC(=O)[C@@H](NC(=O)[C@H](C)NC(=O)[C@@H]1CCCCNC(=O)C[C@H](NC(=O)[C@H](CCCNC(=N)N)NC(=O)CC[C@H](NC(=O)CCCCCCCCCCCCCCCCCCC(=O)O)C(=O)O)C(=O)NCC(=O)N[C@@H]([C@@H](C)O)C(=O)N[C@@H](C)C(=O)N[C@@H]([C@@H](C)O)C(=O)N1)[C@@H](C)O			male Sprague-Dawley rats	subcutaneous, 30 nmol/kg single dose, 24 h	reference: vehicle	food intake	70.8 ± 1.6%
Cn1c(N)c(C=NOCc2ccc3nc(-c4ccccc4)c(Nc4ccc(C(=O)O)cc4)n3c2)c(=O)n(C)c1=O	TDP1	enzyme activity, inhibitor		100 µM, unpurified compound		inhibition	-4.9%
COC1CN([C@H]2CC[C@H]([C@@]3(C)Oc4c(Cl)cc(C(=O)NCc5c(SC)cc(C)[nH]c5=O)c(C)c4O3)CC2)C1		RNA-seq, refers to: HPSE	human, whole blood	dose not given, 24 h	reference: pretreatment baseline	log2 fold change	1.54
COc1cnc2cccc(N3CCc4c(cc(Cn5ccnc5)cc4-c4cn(C)nc4C(F)(F)F)C3=O)c2c1			BALB/c nude mice, MV4-11 xenograft	intraperitoneal, 75 mg/kg, day 10		tumour volume	150 mm3 and 166 mm3 and 125 mm3 and 157 mm3 and 152 mm3
CC(=O)N1N=C(Nc2ccc(-c3ccc(NC4=NN(C(C)=O)C(c5ccc(O)cc5)C4)cc3)cc2)CC1c1ccc(O)cc1 (stereo not drawn)		carrageenan paw oedema	albino rat	oral, 50 mg/kg, 3 h		inhibition	27.2%
CC(C)OC(=O)[C@H](CO)NCc1cc(Cl)c(OCc2cccc(-c3ccccc3)c2Br)cc1OCc1cccnc1			hPD-L1 MC-38 tumour, humanised hPD-1 C57BL/6 mouse	oral, 2.5 mg/kg × 21, day 1, baseline		tumour volume	116 ± 18.1 mm³
CN1CCC[C@]1(C)/C=C/S(=O)(=O)NC(=O)Nc1c2c(cc3c1CCC3)CCC2		IL-1β release	human, whole blood ex vivo	oral, 100 mg twice daily, day 14, 336 h, multiple ascending dose, added: LPS and ATP		inhibition	99.6%
COCCOCCOCCNC(=O)Cc1cc(CC(=O)N[C@H]2C[C@H]3C(=O)Nc4cc(OCCOCCOCCOC)cc(n4)C(=O)N4CCC[C@H]4C(=O)Nc4cc(OCCOCCOCCOC)cc(n4)C(=O)N4CCC[C@H]4C(=O)Nc4cc(OCCOCCOCCOC)cc(n4)C(=O)N3C2)cc(CC(=O)N[C@H]2C[C@H]3C(=O)Nc4cc(OCCOCCOCCOC)cc(n4)C(=O)N4CCC[C@H]4C(=O)Nc4cc(OCCOCCOCCOC)cc(n4)C(=O)N4CCC[C@H]4C(=O)Nc4cc(OCCOCCOCCOC)cc(n4)C(=O)N3C2)c1		anion binding, ITC	water	298 K, added: sodium iodide		TΔS	4.16 ± 0.191 kcal/mol
Cc1ncsc1-c1ccc(C(C)NC(=O)C2CC(O)CN2C(=O)C(NC(=O)CCCCCCCCCCN2CCCC(Nc3ncc(Cl)c(Nc4ccccc4S(=O)(=O)C(C)C)n3)C2)C(C)(C)C)cc1 (stereo not drawn)	22Rv1	RNA-seq, refers to: ZSCAN31 mRNA		concentration not given	reference: DMSO	log2 fold change	-2.6
COCC1CN(C2CCN(c3cc(OC)c(Nc4ncc(Br)c(Nc5ccc6c(c5P(C)(C)=O)OCCO6)n4)cc3C)CC2)C1		RECIST 1.1	advanced EGFR-mutant NSCLC patients	150 mg once daily		objective response rate	16.7%

Repeated from above:
SMILES	target or system	assay	system	setting	how to read	quantity	value
CN1CCC[C@]1(C)/C=C/S(=O)(=O)NC(=O)Nc1c2c(cc3c1CCC3)CCC2		IL-1β release	human, whole blood ex vivo	oral, 100 mg twice daily, day 14, 336 h, multiple ascending dose, added: LPS and ATP		inhibition	99.6%
COCCOCCOCCNC(=O)Cc1cc(CC(=O)N[C@H]2C[C@H]3C(=O)Nc4cc(OCCOCCOCCOC)cc(n4)C(=O)N4CCC[C@H]4C(=O)Nc4cc(OCCOCCOCCOC)cc(n4)C(=O)N4CCC[C@H]4C(=O)Nc4cc(OCCOCCOCCOC)cc(n4)C(=O)N3C2)cc(CC(=O)N[C@H]2C[C@H]3C(=O)Nc4cc(OCCOCCOCCOC)cc(n4)C(=O)N4CCC[C@H]4C(=O)Nc4cc(OCCOCCOCCOC)cc(n4)C(=O)N4CCC[C@H]4C(=O)Nc4cc(OCCOCCOCCOC)cc(n4)C(=O)N3C2)c1		anion binding, ITC	water	298 K, added: sodium iodide		TΔS	4.16 ± 0.191 kcal/mol
Cc1ncsc1-c1ccc(C(C)NC(=O)C2CC(O)CN2C(=O)C(NC(=O)CCCCCCCCCCN2CCCC(Nc3ncc(Cl)c(Nc4ccccc4S(=O)(=O)C(C)C)n3)C2)C(C)(C)C)cc1 (stereo not drawn)	22Rv1	RNA-seq, refers to: ZSCAN31 mRNA		concentration not given	reference: DMSO	log2 fold change	-2.6
COCC1CN(C2CCN(c3cc(OC)c(Nc4ncc(Br)c(Nc5ccc6c(c5P(C)(C)=O)OCCO6)n4)cc3C)CC2)C1		RECIST 1.1	advanced EGFR-mutant NSCLC patients	150 mg once daily		objective response rate	16.7%
